Published values collected from several papers.
Lines come from different studies, so protocols differ.
Cell line: NIH3T3

Structure (SMILES)	observed	method	concentration	time	setting	measurement	result
CCCCNc1c2ccc(Cl)cc2nc2ccc(OC)cc12	cell growth or viability	MTT	–	–	–	CC50	> 0.02 µM
CC(C)(O)C(O)COc1c2ccoc2cc2oc(=O)ccc12 (single isomer, unassigned; (+))	cell growth or viability	MTT	–	24 h	–	IC50	83.5 µM
O=C1Nc2ccc(-c3ccc(C(=O)N4CCOCC4)cc3)cc2/C1=C/c1ccc(N2CCNCC2)cc1	cytotoxicity	WST-1	–	48 h	10% FBS	IC50	> 1 µM
Cc1c(C)c(C)[c-](C)c1C.[Cl][Ir]1[O]C(=Nc2c(-c3ccccc3)cccc2-c2ccccc2)c2cccc[n+]21	–	ICP-MS	10 µM	24 h	–	cellular iridium uptake	163 ng/10⁶ cells
CCCCCCCCCCCCCCCCCCCCCCCCCCCCCCOC(=O)/C=C/c1ccc(O)cc1	cell growth or viability	MTT	–	–	–	IC50	> 100 µg/mL
COc1ccc2nc3cc(Cl)ccc3c(NCCN3C(=O)c4ccc5c6c(ccc(c46)C3=O)C(=O)N(CCN(C)C)C5=O)c2c1	cell growth or viability	MTT	–	–	–	CC50	> 0.02 µM
C=C(C)[C@@H](O)COc1c2ccoc2cc2oc(=O)ccc12	cell growth or viability	MTT	–	24 h	–	IC50	54.1 µM
CC(C)c1cccc(C(C)C)c1N=C1[O][Ir]([Cl])[n+]2ccccc21.Cc1c(C)c(C)[c-](C)c1C	–	ICP-MS	10 µM	24 h	–	cellular iridium uptake	45 ng/10⁶ cells
COc1ccc(-c2c(O)oc3c(CC=C(C)C)c(O)cc(O)c3c2=O)cc1	cell growth or viability	MTT	–	–	–	IC50	5.8 µg/mL
CN1CCN(C(=O)c2ccc(-c3ccc4c(c3)/C(=C/c3ccc(N5CCNCC5)cc3)C(=O)N4)cc2)CC1	cytotoxicity	WST-1	–	48 h	10% FBS	IC50	> 1 µM

Repeated from above:
Structure (SMILES)	observed	method	concentration	time	setting	measurement	result
CCCCNc1c2ccc(Cl)cc2nc2ccc(OC)cc12	cell growth or viability	MTT	–	–	–	CC50	> 0.02 µM
